Measured values of several laboratories.
Each numbered part is a random draw from the data of one study; scales do not carry over between parts. Substitutions count along the parent as printed.

Series 1
Target: Sal-like protein 4, full length isoform B (SALL4, Homo sapiens, UniProt Q9UJQ4-2, residues 1-616)
Method: universal PBM
Molecule type: double-stranded DNA, one strand shown
Sample: in vitro
Tested at: not given
Setting: 8-mer, flanks averaged, mean of replicates
Reading: higher = stronger binding
| Oligonucleotide | E-score |
| --- | --- |
| GTCCATAA | 0.176 |
| ATCAATTC | 0.154 |
| ATACACTA | 0.192 |
| CCGTGAGG | -0.384 |
| GGCCTCCC | -0.344 |
| TCGCGTAA | 0.155 |
| CGGGTGTC | -0.277 |
| AACTCGAT | 0.0901 |

Series 2
Target: Histone acetyltransferase KAT6A, winged helix 2, GST fusion (KAT6A, Homo sapiens, UniProt Q92794, residues 85-181)
Method: protein binding microarray
Molecule type: double-stranded DNA, one strand shown
Sample: in vitro
Tested at: not given
Setting: 8-mer, flanks averaged, mean of 2 arrays, mostly near background
Reference: not given
Reading: higher = stronger binding
Target sequence (chain): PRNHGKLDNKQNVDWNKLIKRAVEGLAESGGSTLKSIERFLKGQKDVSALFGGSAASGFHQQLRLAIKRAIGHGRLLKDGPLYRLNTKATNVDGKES
| Oligonucleotide | E-score |
| --- | --- |
| GCCAATGA | -0.181 |
| CTTCTGGC | -0.0226 |
| CTGACTGC | -0.0834 |
| ATTGCTCG | -0.0568 |
| AAGTATCC | -0.0764 |
| TTAGCGAA | 0.00056 |
| AACAAATG | -0.0665 |
| CGTATGAC | 0.0355 |

Series 3
Target: CCNE1, cyclin fold, Cln2 fusion (human)
Method: yeast growth competition, sequencing
Sample: yeast
Setting: weak parent motif
Reference: not given
Reading: higher = stronger binding
Parent: SLBP docking peptide (human); ARYKRKLLINDFG
| Variant | normalised enrichment score |
| --- | --- |
| A1N | 0.843 |
| I9K | 2.31 |
| Y3L | 0.763 |
| K6E | 0.128 |
| G13L | -0.599 |

Mixed results
| Molecule | target | test | test system | setting | how to read | quantity | value |
| --- | --- | --- | --- | --- | --- | --- | --- |
| PhoQ, residues 284 288 289 292 302 303 SMYGEC | PhoP, residues 12 14 15 18 19 LHSVW (Escherichia coli, UniProt P23836) | Sort-seq, item: YFP reporter | E. coli | PhoQ-PhoP variant library, together with: 10 µM Mg2+ | reference: high Mg2+ state, higher = stronger signaling | fold induction | 11.6 |

For quick reference, copied from above (series 1):
| Oligonucleotide | E-score |
| --- | --- |
| CCGTGAGG | -0.384 |
| GTCCATAA | 0.176 |
| AACTCGAT | 0.0901 |
